Results collected from several papers.
Compare with care: the assays were run in different laboratories. ± gives the spread as reported. Converted amounts (≈) assume the structure as drawn.
Organism: Enterococcus faecalis

With `N#Cc1c(N2C(=O)CCC2=O)sc2c1CCC(c1ccccc1)C2` (centres unmarked) the IC50 was 28.1 ± 1.56 µg/mL (≈ 83.5 µM) (bacterial growth; ATCC 29122).
With `vancomycin` the MIC was 120 µg/mL (broth microdilution; ATCC 51299, VanB).
With `O=C(COc1ccc(-c2nc3ccc(Cl)cc3[nH]2)cc1)N1CCOCC1` the MIC was 0.25 to 1 µg/mL (≈ 0.672 to 2.69 µM) (microbial growth, broth dilution; ATCC29212).
For `CCC(=O)O[C@H]1[C@H](C)O[C@@H](O[C@H]2[C@H](N(C)C)[C@@H](O)[C@H](O[C@H]3[C@@H](CC=O)C[C@@H](C)[C@@H](O)/C=C/C=C/C[C@@H](C)OC(=O)C[C@@H](O)[C@@H]3OC)O[C@@H]2C)C[C@@]1(C)O`, “inhibition zone diameter” read 16.5 mm (1528 vancomycin-resistant, DMSO-methanol; 50 µL of 2.0 mM, 24 h, 37 °C, 9 mm well).
`CCC[C@H]1c2ccccc2C=NN1C(=O)/C=C/c1cc(Cc2cnc(N)nc2N)cc(OC)c1OC` (racemic) has an MIC of 0.06 to 0.125 µg/mL (≈ 0.123 to 0.257 µM) (microbial growth, broth dilution; ATCC29212).
`CCOC(=O)c1c(NC(=O)c2cccs2)sc2c1CCC(c1ccccc1)C2` (centres unmarked) has an IC50 of 37.3 ± 0.99 µg/mL (≈ 90.6 µM) (bacterial growth; ATCC 29122).
With `COc1cc2cc(-c3cccc(-c4ccc(-c5ccccc5)cc4)c3)[n+](C)c(C)c2cc1OC.[I-]` the MIC was 4 to 8 µg/mL (broth microdilution; ATCC 51575 VRE, brain heart infusion broth; 24 h, 37 °C).
With `CCN(CC)CCOc1ccc(-c2nc3ccccc3[nH]2)cc1` the MIC was over 256 µg/mL (microbial growth, broth dilution; ATCC29212).

Excerpt of the above:
For `CCC(=O)O[C@H]1[C@H](C)O[C@@H](O[C@H]2[C@H](N(C)C)[C@@H](O)[C@H](O[C@H]3[C@@H](CC=O)C[C@@H](C)[C@@H](O)/C=C/C=C/C[C@@H](C)OC(=O)C[C@@H](O)[C@@H]3OC)O[C@@H]2C)C[C@@]1(C)O`, “inhibition zone diameter” read 16.5 mm (1528 vancomycin-resistant, DMSO-methanol; 50 µL of 2.0 mM, 24 h, 37 °C, 9 mm well).
